# Measured values pooled from the literature.
# Numbered parts are unrelated; each lists some results of a single study.

# Study 1
# Target: PABPC1L2, full length, GST fusion (mouse, UniProt A0ABA7IW68)
# Method: RNAcompete
# Form: RNA
# Sample: in vitro
# Tested at: 20 nM
# Setting: 7-mer, probes averaged, single round
# Relative to: mean of 7-mers
# Reading: higher = stronger binding
# Residues (chain): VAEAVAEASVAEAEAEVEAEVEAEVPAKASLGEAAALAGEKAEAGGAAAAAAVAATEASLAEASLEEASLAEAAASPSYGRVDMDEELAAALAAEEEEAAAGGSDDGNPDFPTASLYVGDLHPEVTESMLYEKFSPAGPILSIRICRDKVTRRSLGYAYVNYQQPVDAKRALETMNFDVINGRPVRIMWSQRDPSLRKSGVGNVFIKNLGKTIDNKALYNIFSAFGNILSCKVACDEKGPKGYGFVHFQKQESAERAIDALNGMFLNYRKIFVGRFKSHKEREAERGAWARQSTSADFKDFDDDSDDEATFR
Sequence,7-mer Z-score
UUGGAAC,-0.0264
GUGGAGG,0.363
CCAAGAA,0.309
CCGGCCU,-0.46
UUGGAAU,-0.18
CCUAGGG,-0.151
UGAGCUA,-0.113
CGCAAAA,4.18
GUCCAGG,-0.0518
AUAUUCG,-0.266
CUUUAUA,0.0134
GUAAUUU,-0.226
UGGUGGC,0.00436
AGUUGGG,0.0497
UCUCAGG,-0.306
UUCUCCC,-0.338
AUUUUUG,-0.0301
GACUUGU,-0.378
AGUGGUG,-0.0409
UAGCUGC,-0.208
ACACACC,-0.0156

# Study 2
# Target: Histone acetyltransferase KAT6A, winged helix 1, GST fusion (KAT6A, Homo sapiens, UniProt Q92794, residues 1-85)
# Method: protein binding microarray
# Form: double-stranded DNA, one strand shown
# Sample: in vitro
# Tested at: not given
# Setting: 8-mer, flanks averaged, mean of 2 arrays, mostly near background
# Relative to: not given
# Reading: higher = stronger binding
# Residues (chain): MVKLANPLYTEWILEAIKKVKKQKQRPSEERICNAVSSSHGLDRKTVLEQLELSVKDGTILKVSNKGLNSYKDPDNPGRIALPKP
Sequence,E-score
ACCTCGAT,-0.0942
CGTAGCCA,0.0511
ACGCAATA,0.172
ACTGTCAA,-0.0448
AGGTGCCG,0.244
AAGACAGC,-0.0638
GTACGTTA,0.0807
CAACCCTA,-0.235
CGGGGACA,0.201
CCGATGCG,0.334
ATGCCACA,-0.286
CACTACAC,0.0087
GCCGCGGA,0.418
CCCGGTCG,0.389
ACGTCGTA,0.015
GACCCAAA,-0.15
ACGTGTCC,0.0713
AGTAACGC,0.09
AAGCCATC,-0.085
AACCCCAC,-0.154
CCATCGTC,-0.0319
ACCACGAC,-0.136
AACATTTC,-0.177
GCATTAAC,0.0532
CCATAGCA,-0.0707

# Study 3
# Target: Interferon regulatory factor 5, full length, phosphomimetic (IRF5, Homo sapiens, UniProt Q13568-2, residues 1-514, S451D/S453D/S456D/S462D)
# Method: protein-binding microarray
# Form: double-stranded DNA, one strand shown
# Sample: in vitro
# Tested at: 940 nM top
# Setting: 60-bp whole probe
# Together with: salmon DNA 0.4 mg/ml
# Relative to: random background probes
# Reading: higher = stronger binding
# Constant ends, left off below: GCCTAGCAC … GTCTTGATTCGCTTGACGCTGCTG
Sequence,fitted relative affinity
CACGGTTTCGGTCTCGGGACGTGCTAG,11.8 z-score
TCATCTATGTAGTTGATACTGTGCTAG,-0.317 z-score
GACGGTTTCGGGAATCGGGACGTGCTA,7.34 z-score
GCCTTGTTCGTCGCTCCGCTGTGCTAG,-0.0357 z-score
TTGTAAATCTTTTTCCCTATGTGCTAG,0.537 z-score
TTCTGAAGCAGAGCCCTGTTGTGCTAG,-0.528 z-score
ATGTATATATGTGTATATATGTGCTAG,0.217 z-score
CACGGTCTCGGTCTCGGGACGTGCTAG,3.4 z-score
TTAGGACTGGGTATGGGTTAGTGCTAG,-0.106 z-score
CTTTTTAGAAATTTCTTTCTGTGCTAG,0.482 z-score
TTAGGTTTCGGTATAGGTTAGTGCTAG,15.1 z-score
GACGAACTGAGTAACGAGACGTGCTAG,-0.19 z-score
AATCATTTTAGTTTTCATTAGTGCTAG,1.41 z-score
AACGATCTCAGTTTCGAGACGTGCTAG,3.75 z-score
TTAGGACTGCGACTGCTTTAGTGCTAG,-0.687 z-score
GACGATTGCGGGACTGGAGACGTGCTA,-0.659 z-score
GACGGTATCCTTCTCGTGACGTGCTAG,0.414 z-score
GACGGTTTCGCTTCCGGGACGTGCTAG,7.78 z-score
TGAACTAGCGGGTCTTGCAGTGTGCTA,-0.488 z-score
TTAGGCCTGCTTTTCCTTTAGTGCTAG,0.0496 z-score
GACGAACTGGGGTTTCAAGACGTGCTA,0.0577 z-score
GACGAACTGAGACTGGATACGTGCTAG,-0.345 z-score
GACGGTTCCCTTTTCCTGGCGTGCTAG,1.07 z-score
TCATGTCTGCCTTTCAAACTGTGCTAG,0.484 z-score

# Study 4
# Target: Runt-related transcription factor 3, Runt domain (RUNX3, Homo sapiens, UniProt Q13761, residues 53-186)
# Chain of UniProt Q13761 (53-186, looked up): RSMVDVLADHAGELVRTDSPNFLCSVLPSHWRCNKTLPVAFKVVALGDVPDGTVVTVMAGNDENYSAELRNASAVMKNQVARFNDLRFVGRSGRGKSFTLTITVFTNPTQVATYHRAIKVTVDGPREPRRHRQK
# Method: protein-binding microarray
# Form: hairpin DNA
# Sample: in vitro
# Tested at: not given
# Setting: whole hairpin DNA, median over replicate spots
# Relative to: not given
# Reading: higher = stronger binding
Sequence,median fluorescence
GAGGCCTGTTCTGGTTGGCCTCCTGGCCAACCAGAACAGGCCTCACACTC,4780 a.u.
GAGGCCTGTTGCGGTTGGCCTCCTGGCCAACCGCAACAGGCCTCACACTC (5mC at 31),5250 a.u.
GAGGCCTGTTGTCGTTGGCCTCCTGGCCAACGACAACAGGCCTCACACTC,4370 a.u.
CTCAGATCTGTGGGCTGGACTCCTGTCCAGCCCACAGATCTGAGACACTC,3770 a.u.
GAGGCCCTACCGCAACAGCCTCCTGGCTGTTGCGGTAGGGCCTCACACTC,5880 a.u.
GAGGCCCAACCGCACGAGCCTCCTGGCTCGTGCGGTTGGGCCTCACACTC,7510 a.u.
CTCAGTTCTGTGGGCCGGACTCCTGTCCGGCCCACAGAACTGAGACACTC (5mC at 28),4210 a.u.
CTCAGTTCTGGGGGCTGGACTCCTGTCCAGCCCCCAGAACTGAGACACTC (5mC at 34),4160 a.u.
CTCAGTTCTGTGGGCGGGACTCCTGTCCCGCCCACAGAACTGAGACACTC (5mC at 15),4630 a.u.
GAGGCCTGTCGCGGTTGGCCTCCTGGCCAACCGCGACAGGCCTCACACTC (5mC at 10 32),5030 a.u.
GAGGCCTGTCGAGGTTGGCCTCCTGGCCAACCTCGACAGGCCTCACACTC,5030 a.u.
GAGGCCTGGTGCGGTTGGCCTCCTGGCCAACCGCACCAGGCCTCACACTC,6140 a.u.
GAGGCCTGTCGTGGTTGGCCTCCTGGCCAACCACGACAGGCCTCACACTC (5mC at 10),5860 a.u.
GAGGCCTGTTGCGGTTTGCCTCCTGGCAAACCGCAACAGGCCTCACACTC,9890 a.u.
GAGGCCTGTCGCGGTTGGCCTCCTGGCCAACCGCGACAGGCCTCACACTC (5mC at 12 32 34),4910 a.u.
GAGGCCTGTCGCGGTTAGCCTCCTGGCTAACCGCGACAGGCCTCACACTC,6210 a.u.
GAGGCCCAACGGCAACAGCCTCCTGGCTGTTGCCGTTGGGCCTCACACTC (5mC at 34),5000 a.u.
CTCAGTTCTCTGGGCTGGACTCCTGTCCAGCCCAGAGAACTGAGACACTC,3880 a.u.

# Study 5
# Target: RNA binding protein fox-1 homolog 2, RRM domain, GST-SBP tag (RBFOX2, Homo sapiens, UniProt O43251-10, residues 100-194)
# Method: RNA Bind-n-Seq
# Form: RNA
# Sample: in vitro
# Tested at: 365 nM
# Setting: natural RNA segment, single round, ends assumed
# Relative to: no-protein control
# Reading: higher = stronger binding
# Constant ends, left off below: GGGAGUUCUACAGUCCGACGAUC … UGGAAUUCUCGGGUGCCAA
# Target sequence (chain): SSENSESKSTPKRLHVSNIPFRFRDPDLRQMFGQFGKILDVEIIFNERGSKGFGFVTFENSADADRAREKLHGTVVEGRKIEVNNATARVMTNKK
Sequence,RBNS enrichment (R)
UUAAAAGUAUUCAUUCCUCUCGAGGACCCAGGAUCAAUUUCCAGCAUCCACAUGGCAGCUCACAACCAUCUGGAACUCCAGUUCCAGAGAAUCCAAUGCCCUUCUGGCCU,0.358
CUCUGUUCUUUCUAUAAGUACAGAGUGAAAUAAAAGUGAGAAGAAGAUUCAAUCGUAACUGUGUCAACAGUAUUGUGAAGUGAUCAUUUCUUGUAAAACUUGUAAAUAAA,0.239
ACAUUCUUGUCUCCUGCUUUAGAAUGCUAGUGUGUAUCUAUCAUGUAUGCAAUACUUUCCCCCUUUUUGCUUUGCUAACCAAAGAGCAUAUAUUUUACUGUCAGUUGUCU,1.26
UGCCACUAACCCCUCUCCACCACUUGCUCACUCUUGGCCUUGGCCUUGGCCUUUAGGUCCCUGGUGGAGGGAGAUGACCCAUGCCAGGUCCAGCACAAGAUGUGAAGAUU,0.443
CAGUAGACACCCAGAAAUCGUGACUUCUGUGUUCUCUCCAUUUGAGUAUUUUGUAAUUUUUUUGAAAUAUUUGUGGACAUAAAUAAAACCAAGCUACACUACAACCCUUG,0.656
ACAGCUGCUCUCCUGCGCCCAGCUUCACAGGCAGCCCUGCCCCUUUCUCCUCACCAGCAUGGUACCUGCCCUUACUGCUAGAGCAGCUGCUUGUAGAGGGACAUUCCCUC,0.797
UUCCCAUGGCACUUCACCAGCCAGGGAGGCCCUGGGUGCUGGCAGCACAGGAGAGUCCUGUGUGUAGUGAGGGUUUUCCAUGAUCUAUUCUUGCAGUUUUUUUGGUAAUA,0.564
UAAGGAAUCACUGUGUACAAACUGGCCAAGUGCUUCUGUAGAUAACGUCAGUGGAGUAAAUAUUCGACAGGCCAUAACUUGAGUCUAUUGCCUUGCCUUUAUUACAUGUA,0.348
CCCUCUGCAGCCCCUGGCUGCCCUGGACUGUGCAGAGAUGCCUGACUCCAGGGAAACCUGAAAGCAAGAAGUUAAUGGACUGUUUAUUGUAACUUGAUCCUCCCGAGCUG,0.263
CCUGUCUGGCCGGGCCGCACUUGUGGCCCCCGGGACCCCACCUCUGGCCCCACCUCCCUCAAGUCUGCGCCCCGUCCCCAGCCAGACCCACUCGCUGCCGGGACCCUUUC,0.377
CUCCGUGAAGGUCUUAGUGUAUGUGUUUUGCUUGUUAACUGUCAUCGUGGUUGGGAUUAGACCUGUUUGGAAACAGCUGCUGUCAGUGAUGCUCCGGUGUGCCAAGCCCC,5.53
UUGUUAGACUUAAUAAAUCACUGUUAAAUUUAAAGAUGACAGUUACCUUGGAAAGUUCACUAAUACUUCGCUCCAAGGCGUCUGUAAAAGAAGAUAUCUUUAUUGGAGCA,0.339

# A few entries again (study 1):
Sequence,7-mer Z-score
GUGGAGG,0.363
CCAAGAA,0.309
CCGGCCU,-0.46
UUGGAAU,-0.18
CCUAGGG,-0.151
UGAGCUA,-0.113
CGCAAAA,4.18
GUCCAGG,-0.0518
AUAUUCG,-0.266
CUUUAUA,0.0134
GUAAUUU,-0.226
UGGUGGC,0.00436
AGUUGGG,0.0497
